Experimental data gathered from unrelated publications.
Parts stem from different laboratories: compare values within a part only.
UniProt P37023, sequence (whole entry, looked up): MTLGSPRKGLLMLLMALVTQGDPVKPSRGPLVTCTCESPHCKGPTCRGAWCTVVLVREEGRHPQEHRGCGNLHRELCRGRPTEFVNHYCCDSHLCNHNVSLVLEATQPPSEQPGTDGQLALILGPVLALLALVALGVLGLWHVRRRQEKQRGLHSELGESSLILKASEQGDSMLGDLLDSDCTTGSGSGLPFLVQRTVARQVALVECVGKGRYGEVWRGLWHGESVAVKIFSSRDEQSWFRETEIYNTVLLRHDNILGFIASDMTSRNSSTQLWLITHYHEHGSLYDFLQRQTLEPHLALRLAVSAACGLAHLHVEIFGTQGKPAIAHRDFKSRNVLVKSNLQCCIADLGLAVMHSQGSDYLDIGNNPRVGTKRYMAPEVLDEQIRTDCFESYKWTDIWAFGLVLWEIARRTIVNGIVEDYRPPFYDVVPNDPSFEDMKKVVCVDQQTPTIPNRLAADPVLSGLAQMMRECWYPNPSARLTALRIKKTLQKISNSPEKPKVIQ
UniProt P09769, sequence (whole entry, looked up): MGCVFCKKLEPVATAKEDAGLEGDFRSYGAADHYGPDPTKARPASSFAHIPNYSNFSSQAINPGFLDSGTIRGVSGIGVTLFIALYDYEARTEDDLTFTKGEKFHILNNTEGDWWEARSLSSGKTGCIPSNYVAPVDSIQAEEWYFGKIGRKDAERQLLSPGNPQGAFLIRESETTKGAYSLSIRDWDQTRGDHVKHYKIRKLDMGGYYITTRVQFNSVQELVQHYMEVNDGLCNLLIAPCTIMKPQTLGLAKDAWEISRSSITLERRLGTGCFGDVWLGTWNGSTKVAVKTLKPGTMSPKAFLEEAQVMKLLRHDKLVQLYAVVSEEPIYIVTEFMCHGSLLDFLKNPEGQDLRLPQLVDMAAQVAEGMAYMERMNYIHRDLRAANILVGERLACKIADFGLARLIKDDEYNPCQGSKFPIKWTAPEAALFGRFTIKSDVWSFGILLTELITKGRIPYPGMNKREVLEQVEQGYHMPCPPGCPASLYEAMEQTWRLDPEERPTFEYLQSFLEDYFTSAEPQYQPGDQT
UniProt P41240, sequence (whole entry, looked up): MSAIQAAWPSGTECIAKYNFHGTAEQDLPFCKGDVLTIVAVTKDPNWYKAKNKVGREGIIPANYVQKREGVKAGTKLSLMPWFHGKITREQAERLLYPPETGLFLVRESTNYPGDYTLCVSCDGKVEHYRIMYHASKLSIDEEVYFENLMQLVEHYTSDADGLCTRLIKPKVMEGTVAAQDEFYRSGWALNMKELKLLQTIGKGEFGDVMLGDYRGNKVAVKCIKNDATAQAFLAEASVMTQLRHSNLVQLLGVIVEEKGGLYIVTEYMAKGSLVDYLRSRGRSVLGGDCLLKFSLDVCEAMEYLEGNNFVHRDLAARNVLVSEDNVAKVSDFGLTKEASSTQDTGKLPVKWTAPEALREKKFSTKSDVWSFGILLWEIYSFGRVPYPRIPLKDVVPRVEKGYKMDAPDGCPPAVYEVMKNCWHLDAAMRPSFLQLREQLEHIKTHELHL
UniProt Q13555, sequence (whole entry, looked up): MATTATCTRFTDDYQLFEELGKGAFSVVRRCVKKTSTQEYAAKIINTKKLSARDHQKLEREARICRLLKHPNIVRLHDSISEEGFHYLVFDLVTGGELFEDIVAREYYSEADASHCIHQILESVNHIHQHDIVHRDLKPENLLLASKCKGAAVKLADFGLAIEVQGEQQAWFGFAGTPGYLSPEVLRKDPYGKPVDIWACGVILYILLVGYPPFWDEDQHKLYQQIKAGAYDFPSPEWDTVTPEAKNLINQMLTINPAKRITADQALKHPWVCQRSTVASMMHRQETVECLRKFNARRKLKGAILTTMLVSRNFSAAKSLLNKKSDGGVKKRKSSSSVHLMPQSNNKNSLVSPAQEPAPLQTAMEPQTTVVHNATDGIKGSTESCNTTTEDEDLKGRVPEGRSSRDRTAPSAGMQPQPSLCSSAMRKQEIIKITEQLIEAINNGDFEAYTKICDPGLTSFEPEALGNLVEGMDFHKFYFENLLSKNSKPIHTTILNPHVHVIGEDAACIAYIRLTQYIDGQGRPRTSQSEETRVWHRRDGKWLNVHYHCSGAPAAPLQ
UniProt Q8N752, sequence (whole entry, looked up): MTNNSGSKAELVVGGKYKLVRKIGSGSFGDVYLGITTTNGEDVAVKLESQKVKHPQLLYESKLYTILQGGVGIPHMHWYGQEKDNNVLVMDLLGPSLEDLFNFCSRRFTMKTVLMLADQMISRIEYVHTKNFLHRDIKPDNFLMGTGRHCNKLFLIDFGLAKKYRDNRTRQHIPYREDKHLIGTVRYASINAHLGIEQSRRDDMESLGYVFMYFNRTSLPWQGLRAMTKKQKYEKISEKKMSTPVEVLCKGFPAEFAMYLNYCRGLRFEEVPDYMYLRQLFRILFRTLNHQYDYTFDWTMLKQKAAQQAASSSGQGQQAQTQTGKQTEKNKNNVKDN

Block 1
Compound: CC(C)n1cnc(-c2ccc(F)cc2)c1-c1ncc(C(=O)Nc2ccc(N3CCN(C)CC3)cc2)[nH]1
Endpoint: patients with adverse event
Phase 2a trial, measured: respiratory, thoracic, mediastinal disorders; human, idiopathic pulmonary fibrosis; 30 mg once daily, grade 4: 0%
Phase 2a trial, measured: blood glucose increased; human, idiopathic pulmonary fibrosis; 30 mg once daily, grade 5: 0%
Phase 2a trial, measured: hypercholesterolaemia; human, idiopathic pulmonary fibrosis; 30 mg once daily, grade 3: 0%
measured: periorbital oedema, grade 2; idiopathic pulmonary fibrosis patients; oral, 60 mg once daily: 0%
measured: periorbital oedema, grade 2; idiopathic pulmonary fibrosis patients; dose not given, all compound arms pooled: 0%
Phase 2a trial, measured: blood creatinine increased; human, idiopathic pulmonary fibrosis; 30 mg once daily, grade 3: 0%
Phase 2a trial, measured: hyperlipidaemia; human, idiopathic pulmonary fibrosis; 60 mg once daily, grade 3: 0%

Block 2
Cell line: A-375
Concentration: 100 µM
Time: 36 h
Endpoint: viability
CN(C)c1cc(NC(=O)CNC(C)(C)C)c(O)c2c1C[C@H]1C[C@H]3[C@H](N(C)C)C(O)=C(C(N)=O)C(=O)[C@@]3(O)C(O)=C1C2=O: 101%
CC(=O)OCC(=O)[C@@]1(O)CC[C@H]2[C@@H]3CCC4=CC(=O)CC[C@]4(C)[C@H]3[C@@H](O)C[C@@]21C: 106%
OCC(O)CN1CCN(c2ccccc2)CC1 (stereo not drawn): 77.9%
O=C(O)c1cc(=O)c2c(OCC(O)COc3cccc4oc(C(=O)O)cc(=O)c34)cccc2o1: 121%
CC(=O)SCC(Cc1ccccc1)C(=O)NCC(=O)OCc1ccccc1 (stereo not drawn): 105%
Cc1cc2c(cc1S(N)(=O)=O)S(=O)(=O)CCC2: 123%
CCCNS(=O)(=O)Nc1ncnc(OCCOc2ncc(Br)cn2)c1-c1ccc(Br)cc1: 71.9%

Block 3
Host: human
Matrix: microsomes or S9
Concentration: 2 µM
Time: 0.5 h
Endpoint: remaining compound
COc1cc2c(Nc3ccc(Br)cc3F)ncnc2cc1OCC1CN(C(=O)OC(C)(C)C)CCO1 (stereo not drawn): 56.9%
Cc1c(-c2ccccc2)sc2ncnc(NS(=O)(=O)c3ccc(Cl)s3)c12: 0.329%
Fc1ccc(CNc2nc3ncc(Br)nc3s2)cc1: 54.1%
Cc1ccc(/C=C/c2onc(C)c2S(=O)(=O)N2CCC(C(=O)Nc3cccnc3)CC2)cc1: 90.6%
COc1ccccc1CNC(=O)CCCCn1c(=O)c2ccccc2n(Cc2ccccc2C#N)c1=O: 1.96%

Block 4
Method: PRP chromatography
Notes: linear fit, 1 mL
Endpoint: logD 1,9-decadiene/water
CC(C)C[C@@H]1NC(=O)[C@H](CC(C)C)NC(=O)[C@H](CC(C)C)NC(=O)[C@H](Cc2cscn2)NC(=O)[C@@H](CCC(=O)N2CCCC2)NC(=O)[C@H](Cc2cscn2)NC(=O)[C@H](C)NC1=O: -1.33 log units
CC(C)C[C@@H]1NC(=O)[C@H](C)NC(=O)[C@@H](CC(C)C)NC(=O)[C@H](C)NC(=O)[C@H](C)NC(=O)[C@H](CC(C)C)NC(=O)[C@@H](CC(C)C)NC1=O: -1.67 log units
CC(C)C[C@@H]1NC(=O)[C@H](CC(C)C)NC(=O)[C@@H](C(C)C)NC(=O)[C@H](C(C)C)NC(=O)[C@H](C(C)C)NC(=O)[C@H](C)NC(=O)[C@H](C)NC1=O: -1.84 log units
CC(C)C[C@@H]1NC(=O)[C@H](Cc2cscn2)NC(=O)[C@H](C)NC(=O)[C@H](C)NC(=O)[C@@H](CCC(=O)N2CCCC2)NC(=O)[C@H](CC(C)C)NC(=O)[C@@H](CC(C)C)NC1=O: -4.38 log units
CC(C)C[C@@H]1NC(=O)[C@H](Cc2cscn2)NC(=O)[C@H](CCC(=O)N2CCCC2)NC(=O)[C@H](C)NC(=O)[C@@H](CCC(=O)N2CCCC2)NC(=O)[C@H](CC(C)C)NC(=O)[C@@H](CC(C)C)NC1=O: -4.42 log units

Block 5
Target: Cyclin-dependent kinase 7 (CDK7, Homo sapiens, UniProt P50613)
UniProt P50613, sequence (whole entry, looked up): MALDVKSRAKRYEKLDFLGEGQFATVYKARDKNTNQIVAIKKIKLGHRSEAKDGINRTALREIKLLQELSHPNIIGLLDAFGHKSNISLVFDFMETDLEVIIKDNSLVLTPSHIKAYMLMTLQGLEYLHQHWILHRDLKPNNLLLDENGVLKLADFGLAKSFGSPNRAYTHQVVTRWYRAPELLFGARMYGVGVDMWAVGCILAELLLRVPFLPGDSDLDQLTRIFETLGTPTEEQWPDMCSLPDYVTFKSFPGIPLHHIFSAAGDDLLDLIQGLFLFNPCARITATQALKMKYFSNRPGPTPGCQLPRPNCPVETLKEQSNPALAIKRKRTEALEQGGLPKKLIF
Effect on: enzyme activity
Action: inhibitor
Concentration: 0.5 µM
Relative to: control
Endpoint: remaining activity
O=C1NC(=O)/C(=C/c2ccc3c(c2)OC(F)(F)O3)S1: 98.3%
O=C1Cc2c([nH]c3ccc(Br)cc23)-c2ccccc2N1: 95.1%
CC(C)N(CCC(=O)c1ccc2ccccc2c1)Cc1ccccc1: 98%
O=C1c2ccccc2-c2nc3nnnn3nc21: 94.1%
CCCNC(=O)Nc1ccc(Oc2ncnc3cc(OC)c(OC)cc23)cc1Cl: 118%
CN1CCN(c2ccc3nc(-c4c(N)c5c(F)cccc5[nH]c4=O)[nH]c3c2)CC1: 104%
O=C1NC(=O)c2c1c1c3ccccc3[nH]c1n1cncc21: 92.3%
Nc1nc(Nc2ccc(S(N)(=O)=O)cc2)nn1C(=S)Nc1c(F)cccc1F: 43.6%
O=C1Nc2ccccc2/C1=C\c1c(Cl)[nH]c2ccccc12: 99.7%
O=Nc1c(-c2c(O)[nH]c3ccccc23)[nH]c2ccccc12: 89.9%
Oc1cccc(-c2nc(N3CCOCC3)c3oc4ncccc4c3n2)c1: 99.9%
FC(F)(F)c1ccc(/C=C/c2nc(COc3ccc(CCCCn4ccnn4)cc3)co2)cc1: 107%
NC(=O)c1ccc(-c2nc(-c3ccc4c(c3)OCCO4)c(-c3ccccn3)[nH]2)cc1: 97.6%
CC(C)n1cnc2c(Nc3cccc(Cl)c3)nc(NCCO)nc21: 78.5%
Cc1cc(Nc2cc(N3CCN(C)CC3)nc(Sc3ccc(NC(=O)C4CC4)cc3)n2)[nH]n1: 101%
N#C/C(=C(/N)SC1C=CC=CC1)c1cccc(C(O)c2ccncc2)c1 (stereo not drawn): 99.8%
C[C@@H](N)[C@H]1CC[C@H](C(=O)Nc2ccncc2)CC1: 97.9%
COc1ccc2c(c1)c(C1=C(c3c[nH]c4ccccc34)C(=O)NC1=O)cn2CCCN(C)C: 88%
COc1cccc(-c2cc(=O)c3ccccc3o2)c1N: 99.9%
N#CC(c1ccnc(NCCc2cccnc2)n1)c1nc2ccccc2s1 (stereo not drawn): 93.2%
CC(C)(C)c1nc2c3cc[nH]c(=O)c3c3cc(F)ccc3c2[nH]1: 92.8%
O=c1cc(N2CCOCC2)oc2c(-c3ccccc3)cccc12: 95.4%
N#Cc1cnc2cnc(NCc3cccnc3)cc2c1Nc1ccc(F)c(Cl)c1: 87.4%
O=c1c(-c2ccc(F)cc2)c(-c2ccncc2)[nH]n1-c1ccc(Cl)cc1: 97.4%
O=C(O)/C=C/c1cc(Br)c(Br)c(Br)c1Br: 88.6%

Block 6
SMILES: CS(=O)(=O)N1CCCC(NC(=O)[C@H](CCC2CCCCC2)NC(=O)c2ccc(CNc3ncnc4c3nnn4-c3ccccc3)cc2)C1 (stereo partly drawn)
Method: competition with immobilised ligand
Concentration: 0.1 µM
Endpoint: remaining binding
Casein kinase I isoform alpha-like (CSNK1A1L, Homo sapiens, UniProt Q8N752); cell-free assay: 100%
Calcium/calmodulin-dependent protein kinase type II subunit gamma (CAMK2G, Homo sapiens, UniProt Q13555); cell-free assay: 94%
Tyrosine-protein kinase CSK (CSK, Homo sapiens, UniProt P41240); cell-free assay: 91%
Activin receptor type-1-like (ACVRL1, Homo sapiens, UniProt P37023); binding: 97%
Tyrosine-protein kinase Fgr (FGR, Homo sapiens, UniProt P09769); cell-free assay: 88%

Excerpt of the above (block 2):
O=C(O)c1cc(=O)c2c(OCC(O)COc3cccc4oc(C(=O)O)cc(=O)c34)cccc2o1: 121%
CCCNS(=O)(=O)Nc1ncnc(OCCOc2ncc(Br)cn2)c1-c1ccc(Br)cc1: 71.9%
OCC(O)CN1CCN(c2ccccc2)CC1 (stereo not drawn): 77.9%
CC(=O)SCC(Cc1ccccc1)C(=O)NCC(=O)OCc1ccccc1 (stereo not drawn): 105%
Cc1cc2c(cc1S(N)(=O)=O)S(=O)(=O)CCC2: 123%
CC(=O)OCC(=O)[C@@]1(O)CC[C@H]2[C@@H]3CCC4=CC(=O)CC[C@]4(C)[C@H]3[C@@H](O)C[C@@]21C: 106%
CN(C)c1cc(NC(=O)CNC(C)(C)C)c(O)c2c1C[C@H]1C[C@H]3[C@H](N(C)C)C(O)=C(C(N)=O)C(=O)[C@@]3(O)C(O)=C1C2=O: 101%
